Assay results of several laboratories.
Every numbered part comes from another study and shows a few of its results, in no order. Substitutions count along the parent as printed.

Sample 1
Target: CCNB1, cyclin fold, Cln2 fusion (human)
Technique: yeast growth competition, sequencing
Medium: yeast
Notes: weak parent motif
Relative to: not given
Reading: higher = stronger binding
Measurement: normalised enrichment score
Starting sequence: SCAPER docking peptide (human); SNARRSLNFGGST
T13V: 0.917
N2D: 0.403
S6D: 0.476
S1G: 0.322
G11W: 0.484
S12Y: 0.0112
S1K: 0.206
A3L: 0.199
F9S: -0.152
R5I: 0.0537

Sample 2
Molecule: PhoQ, residues 284 288 289 292 302 303 SIHLQL
Technique: Sort-seq
Measured: YFP reporter
Medium: E. coli
Notes: PhoQ-PhoP variant library
With: 10 µM Mg2+
Relative to: high Mg2+ state
Reading: higher = stronger signaling
Measurement: fold induction
PhoP, residues 12 14 15 18 19 TQCLL (Escherichia coli, UniProt P23836): 2.49
PhoP, residues 12 14 15 18 19 VHTVL (Escherichia coli, UniProt P23836): 13.8
PhoP, residues 12 14 15 18 19 ICWRQ (Escherichia coli, UniProt P23836): 1.85

Sample 3
Target: Histone acetyltransferase KAT6A, winged helix 2, GST fusion (KAT6A, Homo sapiens, UniProt Q92794, residues 85-181)
Technique: protein binding microarray
Molecule type: double-stranded DNA, one strand shown
Medium: in vitro
Tested at: not given
Notes: 8-mer, flanks averaged, mean of 2 arrays, mostly near background
Relative to: not given
Reading: higher = stronger binding
Measurement: E-score
Target sequence (chain): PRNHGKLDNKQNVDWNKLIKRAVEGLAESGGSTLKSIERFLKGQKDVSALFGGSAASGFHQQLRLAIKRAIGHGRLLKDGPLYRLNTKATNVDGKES
ATAGGCCG: -0.00347
GCCCACCC: 0.145
TTACACAA: 0.0474
GCCAGAAC: 0.0881
GCGAACCA: 0.0397
CGTGTTGA: 0.0475
CCGTCGTC: -0.0155
CTACTTCC: -0.0569
CTATCGGC: -0.0593
AACAAGTT: -0.0159
CAAGTTTC: -0.0441
CATTAGTA: -0.129

Sample 4
Target: ABI1, truncated, D143A, DHFR fusion (Arabidopsis thaliana)
Technique: DHFR PCA, deep sequencing
Medium: yeast
Notes: methotrexate growth selection, single substitutions
With: (+)-ABA 0.39 µM
Relative to: wild-type fitted maximum
Reading: higher = stronger binding
Measurement: relative binding score
Starting sequence: PYL1, truncated, DHFR fusion (Arabidopsis thaliana); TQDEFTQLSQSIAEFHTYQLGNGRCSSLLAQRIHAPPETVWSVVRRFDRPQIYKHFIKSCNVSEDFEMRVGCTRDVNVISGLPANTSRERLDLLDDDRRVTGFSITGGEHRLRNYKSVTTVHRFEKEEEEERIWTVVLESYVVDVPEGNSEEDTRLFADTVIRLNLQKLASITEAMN
S171E: 65.8%
S59H: 9.67%
C25G: -4.4%
D159P: -21.1%
W41H: -11.5%
D153C: -8.87%
I162F: -10.6%
C25P: 3.45%
S59T: 30.8%
D97I: 20.4%
V121G: 2.03%
V43N: -12%
P146T: 19.6%
R123T: 42.3%
G81K: -3.31%

Some of these lines once more (sample 4):
S59T: 30.8%
G81K: -3.31%
P146T: 19.6%
